# Earlier results, collected from citations in different studies.
# Each numbered part shows a few of the values that one paper quotes. Values joined by “and” are separate records of one study, mostly repeats; a detail may differ. ± gives the spread as reported.

# Series 1 — organism: Cryptosporidium parvum; method: high-throughput screen; tested at: concentration not given
Structure (SMILES),activity
O=C1CC2(CCCC2)CC(=O)N1CCCCN1CCN(c2ncccn2)CC1,inactive
NS(=O)(=O)c1cc(C2(O)NC(=O)c3ccccc32)ccc1Cl (stereo not shown),inactive
CCCCc1oc2ccccc2c1C(=O)c1cc(I)c(OCCN(CC)CC)c(I)c1,inactive
Clc1ccc2c(c1)C(N1CCNCC1)=Nc1ccccc1O2,inactive
CC1=C(/C=C/C(C)=C/C=C/C(C)=C/C(=O)O)C(C)(C)CCC1,inactive
C[C@@H]1CN(CCCn2c3ccccc3c3ccccc32)C[C@H](C)N1,inactive
CC1(C)O[C@@H]2C[C@H]3[C@@H]4CCC5=CC(=O)C=C[C@]5(C)[C@@]4(F)[C@@H](O)C[C@]3(C)[C@]2(C(=O)CO)O1,inactive
OCCN1CCN(CCCN2c3ccccc3Sc3ccc(Cl)cc32)CC1,inactive
CCC1=C[C@@H]2CN(C1)Cc1c([nH]c3ccccc13)[C@@](C(=O)OC)(c1cc3c(cc1OC)N(C)[C@H]1[C@@](O)(C(=O)OC)[C@H](OC(C)=O)[C@]4(CC)C=CCN5CC[C@]31[C@@H]54)C2.O=C(O)C(O)C(O)C(=O)O.O=C(O)C(O)C(O)C(=O)O,inactive
COC(=O)C1=C(C)NC(C)=C(C(=O)OCC(C)C)C1c1ccccc1[N+](=O)[O-] (stereo not shown),inactive
CCOC(=O)[C@@]1(CCCCCCOc2ccc(Cl)cc2)CO1,inactive
Cc1ccc(N(CC2=NCCN2)c2cccc(O)c2)cc1,inactive
CCN1CCN(c2cc3c(cc2F)c(=O)c(C(=O)O)cn3C2CC2)CC1,inactive
CC(CCCCC(=O)Nc1ccc(C(F)(F)F)cc1)NCCc1cnc[nH]1 (stereo not shown),inactive
Cl.NC[C@H](O)c1ccc(O)c(O)c1,inactive
CCOc1ccc2ccccc2c1C(=O)N[C@@H]1C(=O)N2[C@@H]1SC(C)(C)[C@@H]2C(=O)O,inactive
c1ccc(CC2=NCCN2)cc1,inactive
OCCN1C[C@H](O)[C@@H](O)[C@H](O)[C@H]1CO,inactive
COC(=O)C1=C(C)NC(C)=C(C(=O)O[C@@H]2CCCN(Cc3ccccc3)C2)[C@@H]1c1cccc([N+](=O)[O-])c1.Cl (racemic),inactive
CCCNC(C)C(=O)Nc1ccccc1C (stereo not shown),inactive
CC1(C)O[C@@H]2C[C@H]3[C@@H]4C[C@H](F)C5=CC(=O)C=C[C@]5(C)[C@@]4(F)[C@@H](O)C[C@]3(C)[C@]2(C(=O)CO)O1,inactive
Cc1cccc(Nc2ccccc2C(=O)O)c1C,inactive
CO[C@H]1/C=C/O[C@@]2(C)Oc3c(C)c(O)c4c(O)c(c5c(nc6cc(C)ccn65)c4c3C2=O)NC(=O)/C(C)=C\C=C\[C@H](C)[C@H](O)[C@@H](C)[C@@H](O)[C@@H](C)[C@H](OC(C)=O)[C@@H]1C,inactive
NS(=O)(=O)Cc1noc2ccccc12,inactive

# Further values, each from its own experiment
Compound,target or system,test,system,setting,quantity,result
C/C(=C\C(=O)OCCCCCCCCC(=O)O)C[C@@H]1OC[C@H](C/C=C/[C@@H](C)[C@H](C)O)[C@@H](O)[C@H]1O,Staphylococcus aureus,,Newman,,MIC,0.25 µM
COc1cccc(CNC(=O)c2nc3scc(COCc4ccc(C(=O)O)cc4)c3c(=O)[nH]2)c1,MMP13 (human),enzyme activity,,,IC50,0.0069 nM
C=CC(=O)Nc1cc(Nc2ncc(C(=O)OC(C)C)c(-c3cn(C)c4ccccc34)n2)c(OC)cc1N(C)CCN(C)C,,phase 1/2 trial,"human, NSCLC patients",dose not given,objective response rate,28%
COc1ccc(C[C@@H](C)[C@@H](C)Cc2ccc(OC)c(OC)c2)cc1OC,,,human,"intravenous, dose not given",clearance,54.4 ± 20.8 L/h
c1ccc2ccccc2c1,,,"zebrafish embryos, whole embryo","320.4 ng/well, 48 hpf, single exposure",amount in tissue,0.323 ng/well and 0.286 ng/well and 0.331 ng/well
Nc1nc(NCc2ccccc2)nc(-c2cccc(CO)c2)n1,GPR68,cellular potency,,concentration not given,inhibition,no effect
N#C[C@@]1(c2ccc3c(N)ncnn23)O[C@H](CO)[C@@H](O)[C@H]1O,,,mouse,,oral bioavailability,39%
O=C(c1cc(Cc2n[nH]c(=O)c3ccccc23)ccc1F)N1CCN(C(=O)C2CC2)CC1,,,female rat,"dose not given, after 4 weeks daily dosing, at NOAEL",AUC(0-24 h),6270 ng·h/mL
OC[C@H]1O[C@@H](n2ccc3c(SCc4ccc(Cl)cc4Cl)ncnc32)[C@H](O)[C@@H]1O,adenosine kinase (Toxoplasma gondii),binding,,,Ki,26 ± 7.6 µM
Nc1ccn([C@@H]2O[C@H](CO)[C@@H](O)C2(F)F)c(=O)n1,,,metastatic pancreatic cancer patients,dose not given,grade 3 peripheral neuropathy,1%
CC(=O)Nc1nnc(S(N)(=O)=O)s1,,,,,aqueous solubility,3200 µM
c1ccc2c(c1)ccc1ccccc12,,,,experimental mean,log Kow,4.46
CC(=O)OC[C@H]1O[C@H]2OC(C)CCCCCC/C=C\CCCCCCCC(=O)O[C@H]3[C@H](O)[C@@H](O)[C@H](O[C@@H]2[C@@H](O)[C@@H]1O)O[C@@H]3COC(C)=O (stereo partly shown),MDA-MB-231 cells,cell growth,,monolayer culture,IC50,15 to 20 µg/mL
O=C1CSC(=S)N1,AANAT,enzyme activity,,,IC50,27000 nM
CN[C@@H](C)C(=O)N[C@H]1CN(S(=O)(=O)c2cccc(S(=O)(=O)N3CC[C@H]4CC[C@@H](C(=O)NC(c5ccccc5)c5ccccc5)N4C(=O)[C@@H](NC(=O)[C@H](C)NC)C3)c2)CC[C@H]2CC[C@@H](C(=O)NC(c3ccccc3)c3ccccc3)N2C1=O,,,Chinese advanced solid tumour patients,"dose not given, treatment-related adverse events",grade ≥3 ALT elevation,3.6%
CCCc1nn(C)c2c(=O)[nH]c(-c3cc(S(=O)(=O)N4CCN(C)CC4)ccc3OCC)nc12,,,healthy male humans,"oral, 100 mg, geometric mean, given alone",AUC(0-inf),1420 ng·h/mL
Cc1ccc(NC(=O)c2ccc(CN3CCN(C)CC3)cc2)cc1Nc1nccc(-c2cncc(-c3oncc3C)c2)n1,,,mouse,"100 mg/kg/day, steady state",AUC(0-inf),37800 ng·h/mL
O=C(O)c1cc(-c2ccc(C3CCNCC3)cc2)c2ccc(-c3ccc(C(F)(F)F)cc3)cc2c1,MAPK14,"enzyme activity, Eurofins-Panlabs panel",,concentration not given,IC50,2.94 nM
C=CC(=O)Nc1cc(Nc2nccc(Nc3cc(Cl)c(F)cc3C(C)(C)O)n2)c(OC)cc1N1CC[C@@H](N(C)C)C1,,clinical trial,"human, advanced or metastatic NSCLC",dose not given,objective response rate,46%
C/C(=C\C(=O)OCCCCCCCCC(=O)O)C[C@@H]1OC[C@](O)(C[C@@H]2O[C@H]2[C@@H](C)[C@H](C)O)[C@@H](O)[C@H]1O,Staphylococcus aureus,,Newman,,MIC,4 µM
OC[C@H]1O[C@@H](n2ccc3c(SCc4ccc(F)cc4F)ncnc32)[C@H](O)[C@@H]1O,adenosine kinase (Toxoplasma gondii),binding,,,Ki,16 ± 3.9 µM
Cc1cn([C@H]2C[C@H](N=[N+]=[N-])[C@@H](CO)O2)c(=O)[nH]c1=O,,,plasma,,t1/2,2.02 h
O=C1CCc2cc(Nc3cc(OC4CCOCC4)c([N+](=O)[O-])cc3Cl)ccc2N1,BCL6 (human),cellular activity,,,IC50,720 nM
CC(C)c1nc(CN(C)C(=O)N[C@H](C(=O)N[C@@H](Cc2ccccc2)C[C@H](O)[C@H](Cc2ccccc2)NC(=O)OCc2cncs2)C(C)C)cs1,P-glycoprotein,substrate,,,Km,0.13 µM
CC(=O)OCC(CCn1cnc2cnc(N)nc21)COC(C)=O,,,human,,oral bioavailability,77%
